Experimental data from different studies.
Compare with care: the assays were run in different laboratories. Numbers after ± are the reported error.
glf: UDP-galactopyranose mutase (glf, Mycobacterium tuberculosis, UniProt P9WIQ1)

The chains behind the UniProt entries cited, without tags or fusion partners. Residues count along the entry.
UniProt P9WIQ1, whole entry: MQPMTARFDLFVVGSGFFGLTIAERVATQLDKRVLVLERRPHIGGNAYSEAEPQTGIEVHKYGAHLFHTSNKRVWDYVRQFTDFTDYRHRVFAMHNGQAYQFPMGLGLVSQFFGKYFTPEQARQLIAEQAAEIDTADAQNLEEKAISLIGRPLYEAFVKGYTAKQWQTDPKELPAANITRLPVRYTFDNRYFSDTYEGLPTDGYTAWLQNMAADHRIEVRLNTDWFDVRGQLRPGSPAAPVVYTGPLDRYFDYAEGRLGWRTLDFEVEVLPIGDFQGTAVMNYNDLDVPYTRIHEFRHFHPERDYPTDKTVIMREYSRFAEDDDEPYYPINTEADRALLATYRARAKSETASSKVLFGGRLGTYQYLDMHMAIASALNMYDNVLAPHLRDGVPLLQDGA
UniProt P42225, 2-749 limits assumed: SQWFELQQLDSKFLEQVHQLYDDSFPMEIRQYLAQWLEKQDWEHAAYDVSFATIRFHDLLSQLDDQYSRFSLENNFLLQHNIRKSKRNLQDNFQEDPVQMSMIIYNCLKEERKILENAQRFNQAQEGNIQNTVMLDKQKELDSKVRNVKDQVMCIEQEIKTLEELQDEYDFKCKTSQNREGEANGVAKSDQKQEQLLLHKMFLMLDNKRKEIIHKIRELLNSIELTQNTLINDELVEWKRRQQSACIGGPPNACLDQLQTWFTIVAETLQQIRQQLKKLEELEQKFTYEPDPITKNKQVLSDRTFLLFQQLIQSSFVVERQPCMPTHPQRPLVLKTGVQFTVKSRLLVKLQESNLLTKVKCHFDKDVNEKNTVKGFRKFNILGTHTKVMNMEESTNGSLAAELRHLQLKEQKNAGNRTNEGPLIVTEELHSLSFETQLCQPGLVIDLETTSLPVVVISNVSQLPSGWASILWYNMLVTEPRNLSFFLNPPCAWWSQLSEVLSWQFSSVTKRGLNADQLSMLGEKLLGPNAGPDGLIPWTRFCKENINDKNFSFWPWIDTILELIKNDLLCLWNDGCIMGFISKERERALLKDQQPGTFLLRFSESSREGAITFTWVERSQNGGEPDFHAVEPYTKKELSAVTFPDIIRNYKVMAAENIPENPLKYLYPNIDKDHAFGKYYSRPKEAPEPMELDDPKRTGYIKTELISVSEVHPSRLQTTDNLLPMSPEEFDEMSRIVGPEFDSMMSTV
UniProt Q08J23, whole entry: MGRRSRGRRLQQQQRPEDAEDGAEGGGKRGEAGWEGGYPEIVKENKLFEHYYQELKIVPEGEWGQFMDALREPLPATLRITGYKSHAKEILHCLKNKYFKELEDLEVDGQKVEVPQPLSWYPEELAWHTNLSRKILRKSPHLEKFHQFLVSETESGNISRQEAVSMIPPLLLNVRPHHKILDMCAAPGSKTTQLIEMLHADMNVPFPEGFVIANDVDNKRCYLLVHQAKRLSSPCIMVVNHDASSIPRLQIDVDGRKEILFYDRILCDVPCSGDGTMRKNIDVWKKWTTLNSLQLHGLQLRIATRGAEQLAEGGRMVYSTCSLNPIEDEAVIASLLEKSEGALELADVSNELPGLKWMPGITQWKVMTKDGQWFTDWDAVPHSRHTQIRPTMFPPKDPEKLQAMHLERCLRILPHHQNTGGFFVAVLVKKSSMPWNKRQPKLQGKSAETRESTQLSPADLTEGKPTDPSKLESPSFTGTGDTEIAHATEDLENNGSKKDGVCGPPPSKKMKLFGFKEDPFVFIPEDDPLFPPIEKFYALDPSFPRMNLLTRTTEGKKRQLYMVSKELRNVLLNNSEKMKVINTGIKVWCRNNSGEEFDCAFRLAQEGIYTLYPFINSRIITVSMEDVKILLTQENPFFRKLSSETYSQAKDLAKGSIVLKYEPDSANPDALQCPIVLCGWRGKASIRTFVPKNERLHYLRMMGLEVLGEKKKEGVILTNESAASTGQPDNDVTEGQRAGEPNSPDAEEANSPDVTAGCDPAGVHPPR
UniProt Q04864, whole entry: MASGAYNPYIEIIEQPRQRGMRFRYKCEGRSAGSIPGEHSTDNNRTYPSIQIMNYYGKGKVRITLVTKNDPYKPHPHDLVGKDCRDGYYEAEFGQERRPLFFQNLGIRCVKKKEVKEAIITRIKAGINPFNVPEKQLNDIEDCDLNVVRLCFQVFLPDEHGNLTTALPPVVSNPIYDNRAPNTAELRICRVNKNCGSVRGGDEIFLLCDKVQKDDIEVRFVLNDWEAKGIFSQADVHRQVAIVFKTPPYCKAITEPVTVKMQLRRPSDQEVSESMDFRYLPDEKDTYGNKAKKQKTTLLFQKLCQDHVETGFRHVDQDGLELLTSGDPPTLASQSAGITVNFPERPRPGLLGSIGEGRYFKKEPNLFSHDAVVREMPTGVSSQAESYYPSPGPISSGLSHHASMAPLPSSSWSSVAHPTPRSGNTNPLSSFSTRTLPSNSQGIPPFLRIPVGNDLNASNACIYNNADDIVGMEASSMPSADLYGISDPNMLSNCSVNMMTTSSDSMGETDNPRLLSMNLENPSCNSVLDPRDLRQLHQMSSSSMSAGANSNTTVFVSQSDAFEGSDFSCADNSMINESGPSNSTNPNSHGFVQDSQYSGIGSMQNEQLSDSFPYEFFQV
UniProt Q15858, 1-1977 isoform 3: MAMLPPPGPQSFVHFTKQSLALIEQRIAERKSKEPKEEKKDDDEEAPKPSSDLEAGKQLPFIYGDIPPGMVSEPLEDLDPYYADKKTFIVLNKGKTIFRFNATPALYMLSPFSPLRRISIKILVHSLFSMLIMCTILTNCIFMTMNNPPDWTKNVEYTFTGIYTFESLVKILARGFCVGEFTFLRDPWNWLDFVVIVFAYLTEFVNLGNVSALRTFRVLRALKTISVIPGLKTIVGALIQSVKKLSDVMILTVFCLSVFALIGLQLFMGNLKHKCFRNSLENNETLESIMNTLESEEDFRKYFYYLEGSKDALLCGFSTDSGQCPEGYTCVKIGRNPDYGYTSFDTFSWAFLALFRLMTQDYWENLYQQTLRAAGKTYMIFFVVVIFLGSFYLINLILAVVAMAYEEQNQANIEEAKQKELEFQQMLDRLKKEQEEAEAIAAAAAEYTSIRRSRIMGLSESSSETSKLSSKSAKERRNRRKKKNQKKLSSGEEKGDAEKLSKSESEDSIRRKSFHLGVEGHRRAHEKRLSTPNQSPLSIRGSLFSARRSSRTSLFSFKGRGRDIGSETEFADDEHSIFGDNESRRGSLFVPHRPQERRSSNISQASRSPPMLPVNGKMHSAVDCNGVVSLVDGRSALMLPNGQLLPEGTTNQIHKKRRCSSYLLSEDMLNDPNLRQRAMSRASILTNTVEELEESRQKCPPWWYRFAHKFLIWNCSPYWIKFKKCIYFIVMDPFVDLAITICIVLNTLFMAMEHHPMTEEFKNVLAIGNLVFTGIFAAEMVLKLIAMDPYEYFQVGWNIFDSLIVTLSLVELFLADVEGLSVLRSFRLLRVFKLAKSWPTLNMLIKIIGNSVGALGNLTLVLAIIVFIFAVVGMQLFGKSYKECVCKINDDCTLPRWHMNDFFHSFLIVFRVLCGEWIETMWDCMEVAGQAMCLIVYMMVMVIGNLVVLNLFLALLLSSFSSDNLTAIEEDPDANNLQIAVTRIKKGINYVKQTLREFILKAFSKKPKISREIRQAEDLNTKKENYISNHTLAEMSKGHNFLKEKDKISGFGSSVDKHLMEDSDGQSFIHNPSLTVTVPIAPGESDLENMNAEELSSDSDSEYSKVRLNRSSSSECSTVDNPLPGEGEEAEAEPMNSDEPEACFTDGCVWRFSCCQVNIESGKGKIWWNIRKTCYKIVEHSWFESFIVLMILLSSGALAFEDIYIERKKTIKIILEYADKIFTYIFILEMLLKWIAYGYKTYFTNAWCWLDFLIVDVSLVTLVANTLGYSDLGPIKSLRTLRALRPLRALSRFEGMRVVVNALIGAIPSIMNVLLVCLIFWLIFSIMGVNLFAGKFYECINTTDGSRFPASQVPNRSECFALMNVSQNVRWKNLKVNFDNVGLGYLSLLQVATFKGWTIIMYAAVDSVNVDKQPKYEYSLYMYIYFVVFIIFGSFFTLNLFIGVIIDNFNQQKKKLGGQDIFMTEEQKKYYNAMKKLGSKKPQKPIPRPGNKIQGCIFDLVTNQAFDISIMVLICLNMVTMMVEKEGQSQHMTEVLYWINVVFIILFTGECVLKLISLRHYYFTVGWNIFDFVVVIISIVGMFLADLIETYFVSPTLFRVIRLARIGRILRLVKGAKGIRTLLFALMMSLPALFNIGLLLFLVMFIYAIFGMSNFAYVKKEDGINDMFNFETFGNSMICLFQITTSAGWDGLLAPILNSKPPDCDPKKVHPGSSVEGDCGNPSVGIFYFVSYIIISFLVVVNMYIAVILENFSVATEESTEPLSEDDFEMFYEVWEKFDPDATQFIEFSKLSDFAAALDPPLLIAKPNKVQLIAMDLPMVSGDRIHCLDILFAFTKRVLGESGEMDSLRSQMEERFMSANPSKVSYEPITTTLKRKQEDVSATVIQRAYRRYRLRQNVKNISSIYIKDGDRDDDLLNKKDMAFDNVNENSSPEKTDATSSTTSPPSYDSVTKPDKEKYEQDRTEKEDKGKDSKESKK
UniProt Q9P2K8, whole entry: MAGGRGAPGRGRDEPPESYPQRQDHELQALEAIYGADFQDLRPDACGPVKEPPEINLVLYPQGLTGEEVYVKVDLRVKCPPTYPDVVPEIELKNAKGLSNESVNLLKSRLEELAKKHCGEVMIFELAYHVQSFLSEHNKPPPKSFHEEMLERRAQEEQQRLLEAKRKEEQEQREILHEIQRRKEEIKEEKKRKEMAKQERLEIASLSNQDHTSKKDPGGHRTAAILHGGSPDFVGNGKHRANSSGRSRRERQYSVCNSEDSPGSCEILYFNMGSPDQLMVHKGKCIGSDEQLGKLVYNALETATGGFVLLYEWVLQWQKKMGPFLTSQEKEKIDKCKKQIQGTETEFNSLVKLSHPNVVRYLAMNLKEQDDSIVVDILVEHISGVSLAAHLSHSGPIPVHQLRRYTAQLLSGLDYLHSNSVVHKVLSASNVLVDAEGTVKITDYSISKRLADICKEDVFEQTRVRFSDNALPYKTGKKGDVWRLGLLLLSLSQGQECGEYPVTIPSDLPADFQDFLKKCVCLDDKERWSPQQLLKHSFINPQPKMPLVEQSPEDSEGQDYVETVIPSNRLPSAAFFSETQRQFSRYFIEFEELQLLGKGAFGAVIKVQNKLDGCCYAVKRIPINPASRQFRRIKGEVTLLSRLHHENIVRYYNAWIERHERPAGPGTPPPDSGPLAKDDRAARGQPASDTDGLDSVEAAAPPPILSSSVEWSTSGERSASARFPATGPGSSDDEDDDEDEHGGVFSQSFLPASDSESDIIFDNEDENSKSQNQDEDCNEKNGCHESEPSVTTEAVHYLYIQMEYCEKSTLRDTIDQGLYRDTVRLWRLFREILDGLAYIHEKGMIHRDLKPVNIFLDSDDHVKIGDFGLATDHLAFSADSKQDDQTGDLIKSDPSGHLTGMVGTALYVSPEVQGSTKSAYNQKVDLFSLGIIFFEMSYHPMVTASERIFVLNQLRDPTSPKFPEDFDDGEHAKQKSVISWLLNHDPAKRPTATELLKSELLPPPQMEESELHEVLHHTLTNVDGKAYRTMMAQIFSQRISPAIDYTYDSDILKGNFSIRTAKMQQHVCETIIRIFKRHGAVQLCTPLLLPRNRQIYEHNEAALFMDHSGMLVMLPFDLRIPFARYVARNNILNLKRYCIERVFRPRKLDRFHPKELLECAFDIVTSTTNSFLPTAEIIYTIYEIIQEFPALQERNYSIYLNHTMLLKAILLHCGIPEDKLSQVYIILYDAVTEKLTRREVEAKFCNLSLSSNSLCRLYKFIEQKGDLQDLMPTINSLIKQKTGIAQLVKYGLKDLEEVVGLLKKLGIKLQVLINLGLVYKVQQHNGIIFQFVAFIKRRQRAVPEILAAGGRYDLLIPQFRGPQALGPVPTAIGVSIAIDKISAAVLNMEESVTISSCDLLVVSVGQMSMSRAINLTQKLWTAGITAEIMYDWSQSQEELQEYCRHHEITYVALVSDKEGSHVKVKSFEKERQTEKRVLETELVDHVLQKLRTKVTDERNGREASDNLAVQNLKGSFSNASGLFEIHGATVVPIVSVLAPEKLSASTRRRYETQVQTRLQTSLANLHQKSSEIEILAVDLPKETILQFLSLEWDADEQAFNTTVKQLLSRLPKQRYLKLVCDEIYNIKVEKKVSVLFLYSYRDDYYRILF
UniProt O35453, 1-416 isoform 2: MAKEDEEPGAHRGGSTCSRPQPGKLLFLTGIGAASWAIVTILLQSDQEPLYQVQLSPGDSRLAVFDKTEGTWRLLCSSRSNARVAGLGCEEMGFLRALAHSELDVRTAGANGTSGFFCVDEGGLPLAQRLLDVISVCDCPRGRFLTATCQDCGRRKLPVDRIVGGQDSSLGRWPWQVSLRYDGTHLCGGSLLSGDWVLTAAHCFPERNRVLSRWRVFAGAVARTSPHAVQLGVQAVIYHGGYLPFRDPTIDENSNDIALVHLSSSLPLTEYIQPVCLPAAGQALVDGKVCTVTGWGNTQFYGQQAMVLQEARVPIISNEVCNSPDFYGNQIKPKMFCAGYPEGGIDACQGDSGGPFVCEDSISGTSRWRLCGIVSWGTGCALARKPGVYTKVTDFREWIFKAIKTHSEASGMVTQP

| SMILES | target | test | test system | setting | how to read | measurement | result |
| --- | --- | --- | --- | --- | --- | --- | --- |
| Cc1ccc(S(=O)(=O)N(C)CC(=O)N(Cc2ccc(C3CCCCC3)cc2)c2ccc(C(=O)O)c(O)c2)cc1 | Signal transducer and activator of transcription 1, homodimer (Mus musculus, UniProt P42225) | EMSA, item: hSIE probe | NIH3T3/hEGFR nuclear extracts | 50 µM, together with: EGF |  | DNA-binding activity | no inhibition |
| C=CC(=O)N1C[C@H](c2ccc(Br)cc2)[C@@H]1C(=O)Nc1cccc2cccnc12 | RNA cytosine C(5)-methyltransferase NSUN2 (NSUN2, Homo sapiens, UniProt Q08J23) | tRNA methylation |  | 20 µM, 1 h, wild-type enzyme |  | m5C production | inhibited |
| COc1cc(OC)c2ccccc2c1C=C1C(=O)NC(=S)NC1=O | Proto-oncogene c-Rel (REL, Homo sapiens, UniProt Q04864) | inhibitor, flow cytometry | SU-DHL-8, TMD8 | 3 µM, 24 h |  | nuclear translocation | decreased |
| CCN1CC(n2nccc2-c2cc(C(F)(F)F)ccc2Oc2ccc(S(=O)(=O)Nc3ncns3)cc2C#N)C1 | Sodium channel protein type 9 subunit alpha (SCN9A, Homo sapiens, UniProt Q15858) | veratridine-induced response |  | concentration not given |  | inhibition | < 20% |
| CCN1CCN(Cc2ccc(NC(=O)c3ccc(C)c(/C=C/c4cnc5[nH]ccc5c4OC)c3)cc2C(F)(F)F)CC1 | eIF-2-alpha kinase GCN2 (EIF2AK4, Homo sapiens, UniProt Q9P2K8) | inhibitor, cell-based kinome screen |  | 5 µM | baseline: vehicle | log2 fold change | 0.144 log2 |
| CS(=O)(=O)NC(=O)C(Cc1ccc(I)cc1)Nc1nc(-c2ccc(Cl)c(Cl)c2)cs1 (centres unmarked) | glf | enzyme activity, inhibitor |  |  | baseline: compound over reference carboxylate | IC50 ratio | 2 to 3 fold |
| O=C1NC(=O)N(c2cccc(Br)c2)C(=O)/C1=C/c1c[nH]c2ccccc12 | Serine protease hepsin (Hpn, Mus musculus, UniProt O35453) | hepsin activity |  | 50 µM | baseline: vehicle | inhibition of pericellular proteolysis | ~50% |
| Cc1ccc2nc(-c3ccc4nc(-c5ccc(NC(=O)c6cccnc6)cc5)sc4c3)sc2c1S(=O)(=O)O | MBHA DNA substrate | SYBR Green I displacement |  | 100 µM |  | DNA bound | 15 ± 10% |
| CC#C/C(=N\OC[C@H]1COCCN1)c1ccc2ncnc(Nc3ccc(OCc4cccc(F)c4)c(Cl)c3)c2c1 | Tyrosine-protein kinase SYK (SYK, Homo sapiens, UniProt P43405) | kinase activity |  | 10 µM |  | inhibition | 31.9% |
| O=C(O)C(Cc1ccc(I)cc1)Nc1nc(-c2ccc(Cl)c(Cl)c2)cs1 (centres unmarked) | glf | enzyme activity, inhibitor |  | 50 µM |  | inhibition | > 90% |
| Cc1ccc2nc(-c3ccc4nc(-c5ccc(NC(=O)c6ccc7nc(-c8ccc(NC(=O)OCC9c%10ccccc%10-c%10ccccc%109)cc8)sc7c6)cc5)sc4c3)sc2c1S(=O)(=O)O | MBHA DNA substrate | SYBR Green I displacement |  | 100 µM |  | DNA bound | 67 ± 5% |

Some of these lines once more:
| SMILES | target | test | test system | setting | how to read | measurement | result |
| --- | --- | --- | --- | --- | --- | --- | --- |
| O=C(O)C(Cc1ccc(I)cc1)Nc1nc(-c2ccc(Cl)c(Cl)c2)cs1 (centres unmarked) | glf | enzyme activity, inhibitor |  | 50 µM |  | inhibition | > 90% |
